Assay results collected from several papers.
Lines come from different studies, so protocols differ. Several values in a cell are separate wells, animals, samples, runs or records.
Target: Rho-associated protein kinase 1 (ROCK1, Homo sapiens, UniProt Q13464)

C=CC(=O)Nc1cccc(-c2cnc3[nH]cc(C(=O)NC(C)(C)C)c3n2)c1 — inhibition (kinase activity; 0.1 µM): 32% and 30%
Cc1ccc(-c2c(/C=C(\C#N)C(=O)NC(C)C)n(CCCO)c3ncnc(N)c23)cc1 — remaining binding (cell-free assay, competition with immobilised ligand; 1 µM): 93%
C=CC(=O)N1CCc2ccc(-n3c(=O)ccc4cnc5ccc(-c6cnn(C)c6)cc5c43)cc21 — remaining binding (KINOMEscan; 1 µM; reference: DMSO control): 94%
COCC12C(=O)NC3C4(C(OC)CC1O)C1CC5(O)C(OC)C(O)C(OC(C)=O)(C1C5OC(=O)c1ccccc1)C3(O)C(OC)C24 (stereo not shown) — remaining activity (kinase activity, inhibitor, ProQinase kinase profiling; 25 µM; reference: control): 99%
C[C@H]1CN(C(=O)c2cn(-c3ccnc(N)n3)c3cc(C#CC4(O)CCCCC4)ccc23)CCN1 — inhibition (enzyme activity, inhibitor, FRET; 1 µM): 3%
CNC1C[S+]2CC[S+]3CC[S+](C1)[Ru-4]321([N]=C=S)[n]2c3ccc(OC)cc3c3c4c(c5cc(F)c[n+]1c5c32)C(=O)NC4=O (stereo not shown) — remaining binding (KinomeScan; 0.1 µM; reference: untreated): 100%
CS(=O)(=O)Nc1cccc(-c2csc3cnc(Nc4ccc(N5CCN(CCCCCOc6cccc7c6C(=O)N(C6CCC(=O)NC6=O)C7=O)CC5)cc4)nc23)c1 (stereo not shown) — inhibition (kinase probe labelling, binder, KiNativ ATP-acylphosphate LC-MS; MOLT-4 live cells; 1 µM): -19.1%
Cc1c[nH]c2nccc(-c3ccc(C(=O)N[C@@H]4c5c(F)cc(C(F)F)cc5C[C@@H]4O)cn3)c12 — remaining binding (binding, competition with immobilised ligand; 3 µM): 0.4%
CNC(=O)C1CCN(c2cc(C)c(F)cc2NC(=O)c2ccc(-c3cc(O)ccc3C)c(C)c2)CC1 — remaining binding (binding, competition with immobilised ligand; 1 µM): 100%
COc1cc(Nc2nccc(-c3cnn4nc(OC)ccc34)n2)cc(C(F)(F)F)c1 — remaining binding (binding, competition with immobilised ligand; 1 µM): 100%
COc1ccc(O)cc1-c1c[nH]c2ncc(-c3cncc(C(=O)N(C)C)c3)cc12 — inhibition (binding, competition with immobilised ligand; 0.2 µM): 3.59%
CCN1CCN(Cc2ccc(C(=O)Nc3ccc(C)c(NCc4cnc5[nH]ccc5c4OC)c3)cc2C(F)(F)F)CC1 — remaining binding (binding, competition with immobilised ligand; 1 µM): 100%
Nc1ncc(-c2cc(-c3cnn(CC(F)(F)F)c3)ncc2F)nc1C(=O)NC1CNCC(F)C1 (stereo not shown) — remaining activity (enzyme activity; 1 µM; reference: DMSO control): 102%
NC(=O)C[C@H]1CCc2sc3ncnc(O[C@H]4CC[C@H](N5CCOCC5)CC4)c3c21 — inhibition (enzyme activity, inhibitor; 10 µM): 2%
Cc1cccc(O[C@H]2CCC[C@@H](C(C)CNCc3ccncc3)C2)c1 (relative stereo) — inhibition (enzyme activity, inhibitor; 10 µM): 6%
CNC(=O)C[C@H](Cc1ccc(C#N)cc1)NC(=O)c1cc(-c2ccc(CN[C@H](C)c3ccc(C)cc3)o2)ccc1Cl — activity vs control (enzyme activity, inhibitor; 1 µM): 107%
Cc1nc2c(F)cc(-c3nc(Nc4ccc(CNC(=O)CCCCCCC(=O)NO)cc4)ncc3F)cc2n1C(C)C — inhibition (enzyme activity, inhibitor; 1 µM): 73%
Nc1ncc2c(n1)-c1c([nH]c3ccc(C4=CCOCC4)cc13)CCC2 — remaining binding (binding, competition with immobilised ligand; 1 µM): 100%
COc1c(Cl)cccc1Nc1c(-c2ccncc2C#C[C@@]2(C)CCCN2C(=O)/C=C/CN(C)C)[nH]c2c1C(=O)NCC2 — remaining binding (binding, competition with immobilised ligand; 3 µM): 98%

Some of these lines once more:
C=CC(=O)N1CCc2ccc(-n3c(=O)ccc4cnc5ccc(-c6cnn(C)c6)cc5c43)cc21 — remaining binding (KINOMEscan; 1 µM; reference: DMSO control): 94%
COCC12C(=O)NC3C4(C(OC)CC1O)C1CC5(O)C(OC)C(O)C(OC(C)=O)(C1C5OC(=O)c1ccccc1)C3(O)C(OC)C24 (stereo not shown) — remaining activity (kinase activity, inhibitor, ProQinase kinase profiling; 25 µM; reference: control): 99%
C[C@H]1CN(C(=O)c2cn(-c3ccnc(N)n3)c3cc(C#CC4(O)CCCCC4)ccc23)CCN1 — inhibition (enzyme activity, inhibitor, FRET; 1 µM): 3%
